Results pooled from the literature.
A part holds a random share of what one study measured. Positions count from the first letter of the parent shown.

Study 1 — technique: RNA Bind-n-Seq; molecule type: RNA; matrix: in vitro; tested at: 365 nM; relative to: no-protein control; direction: higher = stronger binding
Target: RNA binding protein fox-1 homolog 2, RRM domain, GST-SBP tag (RBFOX2, Homo sapiens, UniProt O43251-10, residues 100-194)
Setting: natural RNA segment, single round, ends assumed
Constant ends, left off below: GGGAGUUCUACAGUCCGACGAUC … UGGAAUUCUCGGGUGCCAA
Residues (chain): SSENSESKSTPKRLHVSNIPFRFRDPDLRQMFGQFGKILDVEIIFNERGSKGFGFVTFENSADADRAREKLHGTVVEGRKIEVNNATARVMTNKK
| Sequence | RBNS enrichment (R) |
| --- | --- |
| UUAAAAAAAAUACAAUAAAGUAAAAACCGCAGUUGGAACUCUUUCCUCUCCCCAGCCCCCCUUACCUUCACUCCCAUACUGGACAAGACAUUUUGGACAUGAGUUCAAGG | 0.647 |
| AGAUGUUUAAAAUGCUUUUGUAUUUACUGCCAUGUAAUUGAAAUAUAUAGAUUAUUGUAACCUUUCAACCUGAAAAUCAAGCAGUAUGAGAGUUUAGUUAUUUGUAUGUG | 0.482 |
| AGAGCUGAUUUGAGGCCUCCUUCUGGGGCUGGGCUCUGCAGGCCAGGUGGGUGUGGCCUGUGUUUUCCCUUCUGUUCUUUCUGCCUGUACUGGAUCUGUUAUUUUCAGGG | 0.753 |
| GAAGCUUGGUGCAAGCUAAAAUUUUUAAAUGGUGUGGAAAUGCAAAUAAUACCAAGUAAAAUAAUACAGAUAUUAUUAAAGUUUCUGGUUUUGAGGUGUUGUAGAUAAAU | 1.36 |
| ACUUACAAAUAAUGGGCUCUGAUUGGGCAAUACUCAUUUGAGUUCCUUCCAUUUGACCUAAUUUAACUGGUGAAAUUUAAAGUGAAUUCAUGGGCUCAUCUUUAAAGCUU | 0.311 |
| CCAGGAACCCAAGGGGAGGCUAGGAUCCCCUUGGGGAAAUCCAGGUAGCAUCAGGUAUUGACAGGGAUCUGAAUCCCAAAGCAGAGAGAGAGGUCCAACCCCGUGUGGCC | 0.772 |
| UUAGAGACUCCCCUUGGCUCCCAGUCACCAUAUCCAGUGUUGUGUAAAGAGACUGGCCAACAGGACCAACCAAGCACCUUACCUCUCCCAUACAAGAUGACCCUCUGAGC | 0.335 |
| CUGGGACUGUGAGGCUCCUUUUGACGUACUUUUGACAUCAGGCAGGUUUGGGAAGAAACAAAGCCAUGCCUGCUCCUGCCUCUCUCCCAACAUGUUUCCAGCAAGUAGAU | 1.17 |
| AGCCCUGGCCUUGCUCUGAUCAGCCUGCUCCUGGGGCAUGGGUGCUCCCGCUUCUGCUCUGCUUGGGCUCACAGGUAUGCACUGGCUGGGUGUGGAUGAGUAUUUUUCUG | 0.512 |
| UCUGAAAUGGUUAUUUGCAGCCCAAUUCCUCAGUGUCAAUGAUCCUUUCUGAGGCUUGGCUUUAGAAAUAACCUUUUGGAACAAACUAUAAAUAUUUCCUAGCAAGGAUC | 0.46 |
| GGCCCAGUGUACACUUAAGCACAUGCCUAACUCAAGAGUUUAGAUUUUAGUAUAGUUUAAAGUUGAGCUGCCUUUUCUUAUGUAGCUAUUUAAAAUAUUUCUGAAGUUCA | 0.379 |
| UCCAAGGAAUCUCUUCUAUUGAGGGCUAAAGAUAAAGAAUUUGGCACACAAAAAAAAUGCAGACAUCCUUGUGAAUUUUGAGUGCUUAUGGGGUCAUCUGGUUAUUUAGG | 0.571 |

Study 2 — technique: protein-binding microarray; molecule type: double-stranded DNA, one strand shown; matrix: in vitro; tested at: 2540 nM top; setting: 60-bp whole probe; with: salmon DNA 0.4 mg/ml; relative to: random background probes; direction: higher = stronger binding; constant ends, left off below: GCCTAGCAC … GTCTTGATTCGCTTGACGCTGCTG
Target: Interferon regulatory factor 3, full length, phosphomimetic (IRF3, Homo sapiens, UniProt Q14653, residues 1-427, S386D/S396D/S398D/S402D/T404D/S405D)
Target sequence (chain): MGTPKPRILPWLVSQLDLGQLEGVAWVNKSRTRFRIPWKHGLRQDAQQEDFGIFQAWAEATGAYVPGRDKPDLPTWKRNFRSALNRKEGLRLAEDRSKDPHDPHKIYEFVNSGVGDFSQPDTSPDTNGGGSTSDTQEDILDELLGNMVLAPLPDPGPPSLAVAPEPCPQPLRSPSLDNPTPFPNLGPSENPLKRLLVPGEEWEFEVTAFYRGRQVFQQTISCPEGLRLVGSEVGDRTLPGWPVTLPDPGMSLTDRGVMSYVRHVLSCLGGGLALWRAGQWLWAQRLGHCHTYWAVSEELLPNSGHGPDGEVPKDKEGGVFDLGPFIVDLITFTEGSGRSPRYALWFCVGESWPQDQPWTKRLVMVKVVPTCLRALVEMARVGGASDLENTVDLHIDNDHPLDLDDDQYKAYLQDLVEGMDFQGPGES
| Sequence | fitted relative affinity |
| --- | --- |
| GGCCATTTCCCTTGCCGCGCGTGCTAG | 1.1 z-score |
| TTAGTTTCCGGTTTCGGTTAGTGCTAG | 7.9 z-score |
| CTCCTAATAAATATGAGACTGTGCTAG | 0.995 z-score |
| TGCCTTTTGCTTTACTGATGGTGCTAG | 0.852 z-score |
| GACGGTTTCCGGTTTCGGGACGTGCTA | 5.76 z-score |
| TTAGATCTCAGACTGGACTAGTGCTAG | 0.0203 z-score |
| GACGGTATCGGACTGTGGACGTGCTAG | 1.65 z-score |
| GACGGTTTCGAGTTTCGGGACGTGCTA | 4.87 z-score |
| GACGGTATCGGGACGGGGGACGTGCTA | 1.36 z-score |
| TTAGATTGCGGGTTTCGATTAGTGCTA | 2 z-score |
| GACGATCACAGTTTCGAGACGTGCTAG | 1.87 z-score |
| GACGATCTCCTTTTCCTGACGTGCTAG | 3.16 z-score |
| TTAGATTTCAGTTTCCATTAGTGCTAG | 6.31 z-score |
| GACGGTATCGACACTGGCGACGTGCTA | 0.67 z-score |
| TTAGGTTTCCTTCTCCTTTCGTGCTAG | 10.2 z-score |
| GACGACTTCAGTTTCGAGACGTGCTAG | 2 z-score |
| TTAGATCTCAGTATGGATTAGTGCTAG | 0.21 z-score |
| GACGGTTTCGGGACTGCGGACGTGCTA | 4.98 z-score |
| TCACATCTGCAAGATCCAACTGTGCTA | 0.713 z-score |
| TGAGGTTTCCTTATCCTTTAGTGCTAG | 7.45 z-score |

Study 3 — target: CCNE1, cyclin fold, Cln2 fusion (human); technique: yeast growth competition, sequencing; matrix: yeast; setting: strong parent motif; relative to: not given; direction: higher = stronger binding
Starting sequence: RBL1 docking peptide (human); GSAKRRLFGEDPP
| Substitution | normalised enrichment score |
| --- | --- |
| GSAKRRLFGEDFP [P12F] | 5.66 |
| GSAKRRLFGEYPP [D11Y] | 5.46 |
| GSAKRRLFGENPP [D11N] | 5.42 |
| GSASRRLFGEDPP [K4S] | 2.69 |
| GSAKRRLFFEDPP [G9F] | 6.03 |
| GSAKRRLFGEDPQ [P13Q] | 5.31 |
| VSAKRRLFGEDPP [G1V] | 6.66 |
| GSAKRRLFGTDPP [E10T] | 4.63 |
| GSAKRRLFGEDAP [P12A] | 6.57 |
| GSAKRHLFGEDPP [R6H] | 2.19 |
| GSAKRRLPGEDPP [F8P] | 0.266 |
| GSAKRRLFGDDPP [E10D] | 6.46 |
| GSAKRRLQGEDPP [F8Q] | -0.15 |
| GSAKRRLFKEDPP [G9K] | 6.4 |
| GSAKRRLFGEFPP [D11F] | 4.14 |
| GSAKRREFGEDPP [L7E] | -0.337 |
| GSAKRRLFGEAPP [D11A] | 4.74 |
| GSGKRRLFGEDPP [A3G] | 1.76 |
| FSAKRRLFGEDPP [G1F] | 7.89 |
| GSAKRRPFGEDPP [L7P] | 0.357 |
| CSAKRRLFGEDPP [G1C] | 6.76 |
| GSAKRRLFGEDPE [P13E] | 6.16 |
| GSLKRRLFGEDPP [A3L] | 0.92 |
| HSAKRRLFGEDPP [G1H] | 6.54 |

Study 4 — technique: protein binding microarray; molecule type: double-stranded DNA, one strand shown; matrix: in vitro; tested at: not given; relative to: not given; direction: higher = stronger binding
Target: Histone acetyltransferase KAT6A, both winged helices, GST fusion (KAT6A, Homo sapiens, UniProt Q92794, residues 1-181)
Setting: 8-mer, flanks averaged, mean of 2 arrays, mostly near background
Target sequence (chain): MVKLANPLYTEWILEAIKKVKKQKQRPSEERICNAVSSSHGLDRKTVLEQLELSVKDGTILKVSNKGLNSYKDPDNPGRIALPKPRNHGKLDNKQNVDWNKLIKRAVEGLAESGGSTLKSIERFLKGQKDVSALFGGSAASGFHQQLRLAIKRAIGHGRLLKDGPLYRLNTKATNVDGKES
| Sequence | E-score |
| --- | --- |
| ACGAAACC | 0.174 |
| ATGACCCC | -0.044 |
| ACATATGG | -0.135 |
| GACACATA | -0.0961 |
| GGTGCTAA | -0.018 |
| CACGCAAG | -0.00458 |
| AGATTACT | -0.132 |
| AGTCGTGG | -0.206 |
| CAGTTTCC | 0.0116 |
| ACTATTAC | 0.0667 |
| AGACGGGG | 0.149 |
| ATTCTTAC | -0.0114 |
| ATGTAGCC | -0.151 |
| CGAAAAAA | -0.0187 |
| ACTAATAA | -0.0528 |
| ATCCGCCG | 0.285 |
| CCTACTAA | -0.129 |
| GTGGTCGA | -0.145 |
| CAGTCTAA | -0.0456 |
| TAACGCAA | 0.184 |
| AAATAGCT | -0.0332 |
| GCTTCGCC | 0.129 |
| ATTTCTGA | -0.123 |
| GACGACCC | 0.014 |
| AATGAACC | -0.0703 |

Study 5 — technique: aptamer microarray, sandwich; molecule type: DNA with 2'F-ANA; matrix: in vitro; tested at: 200 nM; with: Cy3 exosite-II aptamer, 400 nM; direction: higher = stronger binding; sequence: GGTTGGTGTGGTTGG
Target: Prothrombin, mature alpha-thrombin (F2, Homo sapiens, UniProt P00734)
Setting: whole 15-mer aptamer, many near background
| Modification | mean fluorescence intensity [a.u.] |
| --- | --- |
| 2'F-ANA at 1 4 7 9 12 14 15 | 64.1 |
| 2'F-ANA at 1 4 5 6 9 11 14 | 87.3 |
| 2'F-ANA at 1 2 3 5 7 11 13 | 50.4 |
| 2'F-ANA at 1 4 5 7 8 | 63 |
| 2'F-ANA at 1 2 3 7 8 9 11 12 14 | 97.7 |
| 2'F-ANA at 1 3 4 6 7 8 9 10 13 15 | 69.1 |
| 2'F-ANA at 1 2 5 8 9 11 12 13 | 70 |
| 2'F-ANA at 5 8 9 10 11 12 13 15 | 57.3 |
| 2'F-ANA at 2 7 9 10 13 14 | 88.9 |
| 2'F-ANA at 2 3 4 5 13 14 | 53.3 |
| 2'F-ANA at 3 5 8 9 10 11 12 14 15 | 54.8 |
| 2'F-ANA at 1 2 3 8 14 15 | 134 |
| 2'F-ANA at 1 6 11 14 15 | 53.9 |
| 2'F-ANA at 1 3 4 5 8 15 | 68.2 |
| 2'F-ANA at 3 9 13 | 983 |
| 2'F-ANA at 1 4 5 7 10 13 14 | 61.3 |
| 2'F-ANA at 1 2 7 9 10 | 69.7 |
| 2'F-ANA at 1 2 4 6 7 11 14 | 50.8 |
| 2'F-ANA at 2 3 5 6 7 8 10 12 13 15 | 90.1 |
| 2'F-ANA at 3 4 5 7 8 10 11 13 | 75.9 |
| 2'F-ANA at 2 6 7 8 9 11 12 13 14 15 | 142 |
| 2'F-ANA at 2 3 6 7 8 9 10 11 | 334 |
| 2'F-ANA at 2 3 5 6 7 8 11 14 | 52.2 |
| 2'F-ANA at 1 6 7 8 9 10 12 13 14 15 | 48.8 |
| 2'F-ANA at 1 2 5 6 9 10 11 12 14 15 | 50.2 |

Mixed results
| Molecule | target | test | test system | conditions | scale | quantity | value |
| --- | --- | --- | --- | --- | --- | --- | --- |
| PhoQ, residues 284 288 289 292 302 303 SLGVVW | PhoP, residues 12 14 15 18 19 LWHSL (Escherichia coli, UniProt P23836) | Sort-seq, item: YFP reporter | E. coli | PhoQ-PhoP variant library, with: 10 µM Mg2+ | relative to: high Mg2+ state, higher = stronger signaling | fold induction | 2.36 |

For quick reference, copied from above (study 2):
| Sequence | fitted relative affinity |
| --- | --- |
| TTAGTTTCCGGTTTCGGTTAGTGCTAG | 7.9 z-score |
| CTCCTAATAAATATGAGACTGTGCTAG | 0.995 z-score |
| TGCCTTTTGCTTTACTGATGGTGCTAG | 0.852 z-score |
| GACGGTTTCCGGTTTCGGGACGTGCTA | 5.76 z-score |
| TTAGATCTCAGACTGGACTAGTGCTAG | 0.0203 z-score |
| GACGGTATCGGACTGTGGACGTGCTAG | 1.65 z-score |
| GACGGTTTCGAGTTTCGGGACGTGCTA | 4.87 z-score |
| GACGGTATCGGGACGGGGGACGTGCTA | 1.36 z-score |
| TTAGATTGCGGGTTTCGATTAGTGCTA | 2 z-score |
| GACGATCACAGTTTCGAGACGTGCTAG | 1.87 z-score |
| GACGATCTCCTTTTCCTGACGTGCTAG | 3.16 z-score |
| TTAGATTTCAGTTTCCATTAGTGCTAG | 6.31 z-score |
